Earlier results that unrelated publications cite.
Protocols differ between the studies behind these lines. ± marks the error that the study gave.

For `O=C(Nc1ccc([N+](=O)[O-])cc1Cl)c1cc(Cl)ccc1O`, the IC50 was 250 nM (STAT3; reporter gene, inhibitor; HeLa; 24 h).
For `Cc1ccc([N+](=O)[O-])cc1S(=O)(=O)N(C)/N=C/c1cnc2ccc(Br)cn12`, the IC50 was 1000 nM (mTORC1; enzyme activity, inhibitor; added: 10 µM ATP).
For `COCC(=O)O[C@]1(CCN(C)CCCc2nc3ccccc3[nH]2)CCc2cc(F)ccc2[C@@H]1C(C)C`, the IC50 was 10100 nM (T-type calcium channel; inhibitor; HEK293).
With `OC(c1cc(C(F)(F)F)nc2c(C(F)(F)F)cccc12)C1CCCCN1` (stereo not shown) the IC50 was 300 nM (connexin-36 gap junction channel; channel conductance, inhibitor).
For `CCCC(CCC)C(=O)O`, the IC50 was 171000 nM (HDAC1; inhibitor).
The IC50 of `CS(=O)(=O)Nc1cccc(-c2ccc3c(NC(=O)C4CC4)n[nH]c3c2)c1` is reported as 220 nM (AAK1; inhibitor).
`CCC(CC)C(c1ccc(Nc2nc3ccccc3s2)cc1)n1cncn1` (stereo not shown) gave an IC50 of 5 ± 0.8 nM (CYP26A1; enzyme activity, inhibitor; added: 9-cis-retinoic acid).
`Cc1[nH]c(N)nc1CCC(=O)c1cc(F)cc(F)c1` gave an IC50 of 13300 ± 1000 nM (Hv1 proton channel; proton current, inhibitor).
`O=P(O)(O)Oc1cc(OP(=O)(O)O)c(OP(=O)(O)O)cc1OP(=O)(O)O` has an IC50 of ~10000 nM (InsP3 receptor; Ins(1,4,5)P3 binding).
The IC50 of `CCCNC(=N)NCCC[C@H](N)C(=O)O` is reported as ~10000 nM (nNOS; nitrergic vasodilation; bovine ciliary artery).
`N[C@@H](CCC(=O)O)C(=O)O` has an IC50 of 500000 nM (glutamate carboxypeptidase II; enzyme activity, radioenzymatic or HPLC).
`CC(C)C[C@H](CC(=O)NO)C(=O)N[C@H](C(=O)N[C@@H](C)C(=O)NCCN)C(C)(C)C` gave an IC50 of 3000 nM (recombinant ADAM10; enzyme activity, inhibitor).
`CC(C)/N=c1\cc2n(-c3ccc(Cl)cc3)c3ccccc3nc-2cc1Nc1ccc(Cl)cc1` gave an IC50 of 30000 to 50000 nM (OSTα/β (human); transport, inhibitor).
`CN1CC(=O)N2[C@H](c3ccc4c(c3)OCO4)c3[nH]c4ccccc4c3C[C@@H]2C1=O` gave an IC50 of > 10000 nM (PDE1; inhibitor).
For `[Mn+2]`, the IC50 was 58000 nM (voltage-gated calcium channels; barium current, blocker).
`CC(Cc1c[nH]c2ccccc12)(NC(=O)Nc1ccc([N+](=O)[O-])cc1)C(=O)NCC1(c2ccccn2)CCCCC1` (stereo not shown) has an IC50 of 2150 ± 402 nM (mouse GRP receptor; binding; literature species comparison).
For `COc1ccc2c(c1OC)N=C(NC(=O)c1cccnc1)N1CCN=C21`, the IC50 was 1050 nM (mTORC1; enzyme activity, inhibitor; added: 10 µM ATP).
`O=C(O)c1ccc(/C=C2\SC(=S)N(c3cccc(C(F)(F)F)c3)C2=O)cc1` gave an IC50 of 300 to 3000 nM (CFTR; chloride conductance, blocker; depends on cell type and voltage).
`Cc1[nH]c2ccccc2c1CCNCc1ccc(/C=C/C(=O)NO)cc1` gave an IC50 of < 5 nM (class I HDACs; inhibitor).
With `NC[C@@H]1O[C@H](O[C@H]2[C@@H](O)[C@H](O[C@@H]3[C@@H](O)[C@H](N)C[C@H](N)[C@H]3O[C@H]3O[C@H](CO)[C@@H](O)[C@H](O)[C@H]3N)O[C@@H]2CO)[C@H](N)[C@@H](O)[C@@H]1O` the IC50 was 51 ± 5 nM (Escherichia coli ribosome; translation, inhibitor, refers to: firefly luciferase; Escherichia coli S30 lysate).
The IC50 of `CN[C@@H]1C[C@H]2O[C@@](C)([C@@H]1OC)n1c3ccccc3c3c4c(c5c6ccccc6n2c5c31)C(=O)N[C@H]4O` is reported as 620 nM (RAF).
For `CC(=O)Nc1cccc(O)c1`, the IC50 was 78000 ± 21000 nM (lactate dehydrogenase (porcine heart); enzyme activity, noncompetitive inhibitor).
`CC(C)[C@H]1C(=O)N[C@@H](CCCNC(=N)N)C(=O)NCC(=O)N[C@@H](CC(=O)O)C(=O)N[C@H](Cc2ccccc2)C(=O)N1C` gave an IC50 of 120 nM (integrin αvβ5; binding, inhibitor).
`Cc1cc([C@H](C)Nc2ccccc2)c2oc(N3CCOCC3)cc(=O)c2c1` gave an IC50 of 35000 nM (ATM; kinase activity, inhibitor; added: 10 µM ATP).
With `CCCCCCCCCCCCNC(=O)NC1CCCCC1` the IC50 was 7 ± 0.2 nM (human soluble epoxide hydrolase; inhibitor; added: PHOME substrate).
For `CC1(C)[C@@H](OC(=O)CCC(=O)O)CC[C@]2(C)[C@H]3C(=O)C=C4[C@@H]5C[C@@](C)(C(=O)O)CC[C@]5(C)CC[C@@]4(C)[C@]3(C)CC[C@@H]12`, the IC50 was 3000 nM (gap junction channels; gap junction current; human fibroblasts).
`CCCCCCCCCCCCc1cc(=O)c2ccccc2n1O` has an IC50 of ~300 nM (NDH-2; enzyme activity, inhibitor).
`Oc1cccc(-c2nc(N3CCOCC3)c3oc4ncccc4c3n2)c1` gave an IC50 of > 100000 nM (PI4KIIIα; enzyme activity, inhibitor; added: 10 µM ATP).
For `CCN(CCO)CCCC(C)Nc1ccnc2cc(Cl)ccc12` (stereo not shown), the IC50 was > 300000 nM (IKs channel; ion current, inhibitor; CHO cells; room temperature).
The IC50 of `CNC(=O)[C@H](Cc1c[nH]c2ccccc12)NC(=O)[C@@H](CC(=O)NO)CC(C)C` is reported as 1 nM (ADAM9 (recombinant soluble); enzyme activity, inhibitor).
`C[C@H](c1ccc(F)cc1CCCC(=O)O)N(c1cc(F)ccc1F)S(=O)(=O)c1ccc(Cl)cc1` gave an IC50 of 8 to 300 nM (γ-secretase; inhibitor).
For `C[C@@H](NCCN(C)C)[C@@H]1CC[C@@H]2[C@H]3CCc4cc(O)ccc4[C@@H]3CC[C@]21C`, the IC50 was 5700 nM (CatSper, human; channel activation, inhibitor; added: progesterone and PGE1).
The IC50 of `Cc1cc(C(C)Nc2ccccc2)c2oc(-c3ccncc3)cc(=O)c2c1` (stereo not shown) is reported as > 100000 nM (PI4KIIα; enzyme activity, inhibitor; added: 10 µM ATP).
`O=C(O)c1ccc(C=C2SC(=S)N(c3cccc(C(F)(F)F)c3)C2=O)cc1` has an IC50 of ~300 nM (CFTR; inhibitor).
With `CCCOc1ccccc1-c1nc2nn[nH]c2c(=O)[nH]1` the IC50 was 29000 to 35000 nM (PDE9, human; enzyme activity, inhibitor).
`FMRWRD` has an IC50 of 260000 nM (ACE; enzyme activity, inhibitor; peptide).
`CC(C)C[C@H](NC(=O)[C@@H](CC(=O)NO)Cc1ccccc1)C(=O)O` has an IC50 of 30 to 60 nM (neurolysin; inhibitor; range reported for several peptidases).

Repeated from above:
The IC50 of `CCCNC(=N)NCCC[C@H](N)C(=O)O` is reported as ~10000 nM (nNOS; nitrergic vasodilation; bovine ciliary artery).
`N[C@@H](CCC(=O)O)C(=O)O` has an IC50 of 500000 nM (glutamate carboxypeptidase II; enzyme activity, radioenzymatic or HPLC).
`CC(C)C[C@H](CC(=O)NO)C(=O)N[C@H](C(=O)N[C@@H](C)C(=O)NCCN)C(C)(C)C` gave an IC50 of 3000 nM (recombinant ADAM10; enzyme activity, inhibitor).
`CC(C)/N=c1\cc2n(-c3ccc(Cl)cc3)c3ccccc3nc-2cc1Nc1ccc(Cl)cc1` gave an IC50 of 30000 to 50000 nM (OSTα/β (human); transport, inhibitor).
`CN1CC(=O)N2[C@H](c3ccc4c(c3)OCO4)c3[nH]c4ccccc4c3C[C@@H]2C1=O` gave an IC50 of > 10000 nM (PDE1; inhibitor).
